Measurements from different studies.
Compare with care: the assays were run in different laboratories.
Organism: Enterococcus faecalis

| Structure (SMILES) | method | strain | time | temperature | setting | MIC |
| --- | --- | --- | --- | --- | --- | --- |
| CCCNc1nc(F)c2c(c1O)C(=O)C1=C(O)[C@]3(O)C(=O)C(C(N)=O)=C(O)[C@@H](N(C)C)[C@@H]3C[C@@H]1C2.Cl.Cl | broth microdilution CLSI | ATCC 29212 |  |  |  | 0.5 µg/mL |
| CN[C@H](CC(C)C)C(=O)N[C@H]1C(=O)N[C@@H](CC(N)=O)C(=O)N[C@H]2C(=O)N[C@H]3C(=O)N[C@H](C(=O)N[C@H](C(=O)O)c4cc(O)cc(O)c4-c4cc3ccc4O)[C@H](O)c3ccc(c(Cl)c3)Oc3cc2cc(c3O[C@@H]2O[C@H](CO)[C@@H](O)[C@H](O)[C@H]2O[C@H]2C[C@](C)(N)[C@H](O)[C@H](C)O2)Oc2ccc(cc2Cl)[C@H]1O | broth microdilution |  | 18 h |  |  | 32 µg/mL |
| CN(C)[C@@H]1C(O)=C(C(N)=O)C(=O)[C@@]2(O)C(O)=C3C(=O)c4c(O)cnc(F)c4C[C@H]3C[C@@H]12.Cl | broth microdilution CLSI | ATCC 29212 |  |  |  | 4 µg/mL |
| C[N+](C)(C)CCCN |  | BM4166, VanA vancomycin-resistant |  |  |  | > 800 µg/mL |
| Cc1ccc2[nH]nc(-c3nnc(Nc4ccc(Br)cc4)s3)c2c1 |  | ATCC 2942 |  |  |  | 199 µg/mL |
| Cc1c2c(nn1C)CSCc1cc(n(C)n1)CSc1cc(c3ccccc3c1)OCCCc1c(C(=O)O)n(C)c3c-2c(Cl)ccc13 | broth microdilution | ATCC 29212 |  |  |  | 25 µM |
| Cc1ccc2[nH]nc(-c3nnc(Nc4cc(Cl)cc(Br)c4)s3)c2c1 |  | ATCC 2942 |  |  |  | 194 µg/mL |
| CN(C)c1cc(NC(=O)CNC(C)(C)C)c(O)c2c1C[C@H]1C[C@H]3[C@H](N(C)C)C(O)=C(C(N)=O)C(=O)[C@@]3(O)C(O)=C1C2=O | broth microdilution CLSI | ATCC 29212 |  |  |  | 0.031 µg/mL |
| Cc1ccc2[nH]nc(-c3nnc(Nc4ccc(F)cc4)s3)c2c1 |  | ATCC 2942 |  |  |  | 3.9 µg/mL |
| CN(C)c1ncc(O)c2c1C[C@H]1C[C@H]3[C@H](N(C)C)C(O)=C(C(N)=O)C(=O)[C@@]3(O)C(O)=C1C2=O.Cl.Cl | broth microdilution CLSI | ATCC 29212 |  |  |  | 1 µg/mL |
| Cc1ccc2[nH]nc(-c3nnc(Nc4ccc(Cl)cc4)s3)c2c1 |  | ATCC 2942 |  |  |  | 32.8 µg/mL |
| C=C/C=C(\C)CC[C@H]1C[C@H](O)CC(=O)O1 | broth microdilution | KCTC 3511 |  | 37 °C | Mueller-Hinton broth | 64 µg/mL |

Excerpt of the above:
| Structure (SMILES) | method | strain | time | temperature | setting | MIC |
| --- | --- | --- | --- | --- | --- | --- |
| Cc1ccc2[nH]nc(-c3nnc(Nc4ccc(Cl)cc4)s3)c2c1 |  | ATCC 2942 |  |  |  | 32.8 µg/mL |
| C=C/C=C(\C)CC[C@H]1C[C@H](O)CC(=O)O1 | broth microdilution | KCTC 3511 |  | 37 °C | Mueller-Hinton broth | 64 µg/mL |
